Assay results pooled from the literature.
Parts stem from different laboratories: compare values within a part only.

Set 1
Target: Protein max, full length (MAX, Homo sapiens, UniProt P61244-2, residues 1-151)
Method: protein-binding microarray
Form: double-stranded DNA, one strand shown
Matrix: in vitro
Tested at: not given
Setting: k-mer, scored over probes, only values ≥0.25
Reading: higher = stronger binding
Quantity: E-score
ACGTGCTG: 0.427
CGCCCCGC: 0.279
CCGTGGCG: 0.256
CGTGATAC: 0.343
ATGGGGCG: 0.328
ACATGATG: 0.315
CGTGGTAG: 0.34
AGCGTGTA: 0.387
CCAAGACA: 0.267
ACGCCGTG: 0.294
ACGTGTAT: 0.447
CGTGAATC: 0.266
CCTCCACG: 0.318
ACCCACCT: 0.263
ACGTGTGG: 0.437
CATGCCAA: 0.312
GAACACGC: 0.426

Set 2
Target: Centromere-binding protein 1, full length, His-tagged (CBF1, Saccharomyces cerevisiae, UniProt P17106, residues 1-351)
UniProt P17106, sequence (whole entry, looked up): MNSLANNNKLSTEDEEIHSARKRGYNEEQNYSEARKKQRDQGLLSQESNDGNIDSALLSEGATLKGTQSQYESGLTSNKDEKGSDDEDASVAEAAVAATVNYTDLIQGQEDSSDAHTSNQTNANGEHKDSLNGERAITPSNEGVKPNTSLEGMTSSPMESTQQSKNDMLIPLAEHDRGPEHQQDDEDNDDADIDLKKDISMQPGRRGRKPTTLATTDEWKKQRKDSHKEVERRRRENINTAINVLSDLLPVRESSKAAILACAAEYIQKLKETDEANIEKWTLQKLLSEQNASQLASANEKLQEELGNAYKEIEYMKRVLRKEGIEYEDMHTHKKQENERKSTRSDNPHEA
Method: competition protein-binding microarray
Form: double-stranded DNA, one strand shown
Matrix: in vitro
Tested at: 2 µM
Setting: whole 60-bp probe, lowest competitor level
Added: Pho4 competitor, 0.05 µM
Reading: higher = stronger binding
Quantity: fluorescence intensity
Constant ends, left off below: … GTCTTGATTCGCTTGACGCTGCTG
CTTCTGTAAATTTGACGTGTGGGTGGACGCGCCCCG: 96.2 a.u.
ATCCGCGCCCTTTGGCGTGTTCACCACAGAGTCGCG: 58 a.u.
CGTTTGTAATACCATCACGTGCAAAATCTTCTCTTC: 6210 a.u.
GCAATGCGATGCAGCCACGTTATATAATGCGTTTAA: 88.9 a.u.
CGTCCTAGTGATTGTATGGTGGGTGCCATGAGGAAG: 85.4 a.u.
AAAGCGGTAATTTTTCACGTGGTGTCAAATATCTAT: 1960 a.u.
TGCGCAACAACTTGGCGCGTGGGTGTATGTCTAGAA: 80.3 a.u.
AATGAAGAAAGTTAAACCGTGATGGATTACTTCTTG: 104 a.u.
AAAGCGGTAATTTGTATAGTGGGTGCAGATATCTAT: 96.6 a.u.
CTAACGAAGGTTTTTCACGTGTCATACAAGCCAAGT: 1120 a.u.
AAATTACTAAGTTGCTTGGTGGGTGACGCCGTATGA: 56.4 a.u.
CTAACGAAGGTTTGTTGCGTGGGTGACAAGCCAAGT: 63.6 a.u.
CGGGGTTAAGTTTGGTGCGTGGGTGGCTTGCAGCAG: 73.3 a.u.
GTTTCAGCGAAGTCGCACGTGAAGGATAGCAGTGGC: 700 a.u.
CATCCTTTCCAACATGATGTGACGAATTAACGACTG: 97.5 a.u.
AGTAGCGATGACTGTCATGAAGATGAAAGGGTGCGG: 69.9 a.u.
CGGGGTTAAGTTTGCGGGGTGGGTGGCTTGCAGCAG: 83.7 a.u.
GTAAAACGCCTCTTCCACGTTGATTGCTTGCTTAGC: 86.2 a.u.
AAAGCGGTAATTTGAGGCGTGGGTGCAGATATCTAT: 73.1 a.u.
CTTCTGTAAATTTTTCACGTGAGTTGACGCGCCCCG: 973 a.u.
CATATGGTATGATTGCACGTGGGACTCTAGGGGAAG: 1050 a.u.
GGGCCAAGCGAGAGTCACGTGCTTTACAGGCCTGCC: 8830 a.u.

Set 3
Target: RNA binding protein fox-1 homolog 2, RRM domain, GST-SBP tag (RBFOX2, Homo sapiens, UniProt O43251-10, residues 100-194)
Method: RNA Bind-n-Seq
Form: RNA
Matrix: in vitro
Tested at: 365 nM
Setting: natural RNA segment, single round, ends assumed
Baseline: no-protein control
Reading: higher = stronger binding
Quantity: RBNS enrichment (R)
Constant ends, left off below: GGGAGUUCUACAGUCCGACGAUC … UGGAAUUCUCGGGUGCCAA
Target sequence (chain): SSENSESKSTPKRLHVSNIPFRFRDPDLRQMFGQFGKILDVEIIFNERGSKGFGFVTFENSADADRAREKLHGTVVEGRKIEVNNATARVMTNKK
GUUUAUGUAAUAGUUCUAUCCUUUUGCCUGCAGGUCAGUUGUAAUAAAUCUAGGAUGUGAUGAUGACUUUGUAAUUUGAUUUUCUGAAAUCAGACCCUGAGAGGGGAAAA: 13.6
GGGUCCUGUGCAUUUGCCACAGUGGAAGACUACCUACAUUAGCUAUGCACUUCAAGAGCUCACACUCACAUUGUGGCAAACAGUCAACAUGGAAGUAGACCGGCUCUGCU: 0.226
GCUGGAGAAAGAAGGAAGAAAUGGUUUUCUUAAAUACCUACAAAAAAGUUACUGUGGUAUCUAUGAGUUAUCAUCUUAGCUGUGUUAAAAAUGAAUUUUUACUAUGGCAG: 0.457
CUGUUUUUUGGGGUUUUUUUUUUUUAAGAAAUAUUUUCACUGGUUUUCUGUGACUCUCUAAACACUUCAUCGAAACUAGAAGACUGAAUUAUGAGGAAACUAUUUGGAUU: 0.483
CUUAUAAGUGUCAUACGUCACCCUACAGCAAACACGUGACAACCAUCCUGGGCUCUCAUCUGAACCCCUCUUCUACCCACUUCUACUUGGAGGUGUCCUGUCUUUUUAAA: 0.444
GCCAGGCUGCCAGGAGAUCGCGGAGGAGUUCCGUGCGCAGGAGAUUGAUGGGCAAGCCUUGCUGCUGCUCAAGGAGGACCACCUAAUGAGCGCCAUGAACAUCAAGCUAG: 1.33
GGACACGGGUGCCAGCCAAAAAGUUGGAGUGAAAGACCCUGGCACCCGCCCGACACCUGCGUGAGCCCUAGGAUCCAGGUCCUCUCUCACCUCUGACCCAGCUCCAUGCC: 0.327
AGUGCUUUGUACUGUCAACUGCAUUAUCUUUAAUUAUUUAAAGGUAGAAUUAUUUAAUUUUGUGAUUUGUUCUUCCAUAUGACAUUGAGCAAAUAGAUCUGUUUCAAAAU: 0.569
UGCCAGGCUCAGUUCCCACCCACACCAGCACUUCCCUUCCUUCUGGUUUUCUGCCUGUGUGCUGCCCAAGGCUCAAUCAGUGCUAAGCUUCAUAGAUGGCAUAUACCCUU: 0.235
CUGUUAUUUAUUCUUGUUUAUUCAAAUGACUGCAAUAACAAUGUUUCAUUCACUAAUGUUAAGGUUAAUAUGUUUAAGAUCUUGUUUAAAUGAUGUUUCUUCUGCAACUG: 0.252
GGCCUGGCCUCAGAACCUGGUGGCUCCUGCCUGCUCCUUCACUUUUGUAAAACCAUCCCCUUCACCAGAAUGGUAUUAACUCCUGGUGCUUUGUACUACUGGUCCAGCUG: 0.569
UCUGAGUUUGAAUCCUUGCUCUCUAGGAUGCAGGUGGCUUGAAGCAGAAUGCCACACCUGCAAGUUGAUUAGAACUGCCUUUCUUCCCAGGCUUGACAUAGGUAUUAAGU: 4.35

Set 4
Target: Sal-like protein 4, full length isoform B (SALL4, Homo sapiens, UniProt Q9UJQ4-2, residues 1-616)
Method: universal PBM
Form: double-stranded DNA, one strand shown
Matrix: in vitro
Tested at: not given
Setting: 8-mer, flanks averaged, mean of replicates
Reading: higher = stronger binding
Quantity: E-score
CTAGGTGA: -0.201
CCTTGGAC: -0.184
AATCAAGC: 0.0724
AAGCAATA: 0.226
ATATTCAC: 0.319
CAGTAATC: -0.0423
AGACTTTC: 0.0335
AAGGCCAG: -0.177
CCCTCCCC: -0.118
AACGGGTG: -0.212
CTGCGTCA: -0.066
GTACGCTA: 0.00892
AACCGGTA: -0.145
GACGAATC: 0.0809
CGGTGAAC: -0.145
CAGTTTCC: -0.0643
GCACGCGC: -0.113
CATAACGA: 0.189
CCATAAAA: 0.271
GGACCGCA: -0.243
GGGTGCAA: -0.198

Set 5
Target: Prothrombin, mature alpha-thrombin (F2, Homo sapiens, UniProt P00734)
Method: aptamer microarray, sandwich
Form: DNA with 2'F-ANA
Matrix: in vitro
Tested at: 200 nM
Setting: whole 15-mer aptamer, many near background
Added: Cy3 exosite-II aptamer, 400 nM
Reading: higher = stronger binding
Quantity: mean fluorescence intensity
Strand: GGTTGGTGTGGTTGG
2'F-ANA at 2 3 4 7 8 9 11 12 13 14: 296 a.u.
2'F-ANA at 1 2 3 4 6 7 13: 103 a.u.
2'F-ANA at 1 2 4 5 7 9 11 12 13 14 15: 49.7 a.u.
2'F-ANA at 3 5 7 8 9 10 11 12 14: 61.5 a.u.
2'F-ANA at 1 2 3 6 7 9 12: 297 a.u.
2'F-ANA at 3 6 7 11 12 13 14 15: 536 a.u.
2'F-ANA at 1 4 6 8 9 11: 108 a.u.
2'F-ANA at 2 3 6 8 9 10 11 13: 292 a.u.
2'F-ANA at 2 4: 366 a.u.
2'F-ANA at 3 5 7 8 10 15: 59.9 a.u.
2'F-ANA at 1 2 4 6 8 10 11 15: 60.6 a.u.
2'F-ANA at 1 6 8 11 13 15: 141 a.u.
2'F-ANA at 3 6 9 10 13 14: 400 a.u.
2'F-ANA at 2 4 5 6 8 9 14: 74 a.u.
2'F-ANA at 1 2 3 4 7 8 9 11 12 13 14 15: 92.4 a.u.
2'F-ANA at 1 10 11 13: 48.7 a.u.
2'F-ANA at 1 5 6 8 9 12 13 14 15: 46.8 a.u.
2'F-ANA at 1 5 6 8 9 15: 80.1 a.u.
2'F-ANA at 2 5 6 8 11 13: 57.4 a.u.
2'F-ANA at 1 2 3 4 5 8 11 12 15: 86.9 a.u.
2'F-ANA at 3 9 12 14: 597 a.u.
2'F-ANA at 1 3 5 6 7 12 13 14: 48.2 a.u.
2'F-ANA at 7 8 9 10 14: 139 a.u.
2'F-ANA at 3 4 12 13 14: 405 a.u.
2'F-ANA at 3 5 11 12 13 14: 60.4 a.u.

Set 6
Target: Histone acetyltransferase KAT6A, winged helix 1, GST fusion (KAT6A, Homo sapiens, UniProt Q92794, residues 1-85)
Method: protein binding microarray
Form: double-stranded DNA, one strand shown
Matrix: in vitro
Tested at: not given
Setting: 8-mer, flanks averaged, mean of 2 arrays, mostly near background
Baseline: not given
Reading: higher = stronger binding
Quantity: E-score
Construct (chain): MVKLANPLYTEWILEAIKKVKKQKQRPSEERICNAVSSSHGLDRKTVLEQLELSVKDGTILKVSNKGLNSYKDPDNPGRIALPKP
GAATGGGC: -0.0888
ACAAGGCA: -0.262
ACGCGATG: 0.17
CCCTAAAC: -0.0948
CGGGTTGC: 0.304
ACAAGACG: 0.0433
GTACCTAA: -0.079
CTCCCCGA: 0.17
CAAAACGC: 0.08
AGGCCTAA: -0.194
AAGGGTGG: -0.216
TCTAAGCA: -0.0983
AGGTTACT: 0.0712
CTCACACA: -0.143
AACTTGCT: -0.155
CCGCCTCA: 0.323
GATGGCCC: 0.0434
TCGGTCAA: -0.0518
CCGATCAA: 0.0891
GACATTCA: -0.12
CCAGGCTC: -0.182
CCCTGAGG: -0.12
ATAACTCA: -0.0633

Repeated from above (set 1):
ACATGATG: 0.315
ATGGGGCG: 0.328
ACGTGTAT: 0.447
CATGCCAA: 0.312
CCTCCACG: 0.318
GAACACGC: 0.426
ACGCCGTG: 0.294
ACGTGTGG: 0.437
AGCGTGTA: 0.387
CGTGGTAG: 0.34
CGTGATAC: 0.343
